Assay results gathered from unrelated publications.
Numbers after ± are the reported error.

Molecule	test	test system	conditions	scale	measurement	result
Nc1ccc([N+](=O)[O-])cc1-c1nc2ccccc2n(Cc2ccccc2)c1=O	short-circuit current increase	mouse, freshly isolated colon	Cl- secretion	–	EC50	~300 nM
COc1cc(F)c([C@@H]2CNC(=O)[C@H]2NC(=O)Nc2ccccc2)c(F)c1	zymosan phagocytosis, stimulator	wild-type peritoneal macrophages, mouse	BioGel-elicited	–	EC50	~0.008 nM
cotadutide	measured: total daily insulin dose	human, type 2 diabetes, CKD, insulin-treated	dose not given, median	reference: baseline	change in insulin dose	-37%
PACAP	qRT-PCR, GAPDH-normalised, measured: PAC1-receptor	APP V717I transgenic mouse, 6 months old, brain	intranasal, dose not given, 3 months	reference: vehicle-treated mice	mRNA level	168 ± 13.2%
CCCn1c(=O)n(C2CC2)c(=O)c2[nH]c(-c3ccc(N(CC)C(=O)c4cccnc4)nc3)nc21	–	KKA diabetic mice	oral, 20 mg/kg four times at 12 h intervals, 2 day	–	basal plasma glucose	no effect
bovine insulin	blood glucose lowering	Sprague-Dawley rats	intestinal closed loop, 50 IU/kg	reference: s.c. 1.0 IU/kg	pharmacological availability	0.56 ± 0.44%
COc1c(C=O)c(O)cc2c1C(=O)c1ccccc1C2=O	hapten-induced migration	mouse, ear epidermis	topical, 20 µM, 24 h, with: TNCB	reference: vehicle	Langerhans cell density	increased
CCCOc1ccc(S(=O)(=O)NCCC2CCCN2C)cc1-c1nc2c(CCC)nn(C)c2c(=O)[nH]1 (centres unmarked)	blood pool echocardiography	human adolescents after Fontan palliation	oral, 87.5 mg once daily, day 5	reference: baseline, negative is improvement	change in myocardial performance index	-0.076 ± 0.14
C[C@H]1C[C@H]2CSC(N)=N[C@@]2(c2nc(NC(=O)c3ccc(OC(F)F)cn3)cs2)CO1	measured: CSF total Aβ	healthy adults	275 mg once daily, 14 days, day 15	reference: placebo-adjusted baseline	change from baseline	-85.4%
CC1(C)CCC(CN2CCN(c3ccc(C(=O)NS(=O)(=O)c4ccc(NCC5CCOCC5)c([N+](=O)[O-])c4)c(Oc4cnc5[nH]ccc5c4)c3)CC2)=C(c2ccc(Cl)cc2)C1	cell kill, PI exclusion flow cytometry	normal CD3+ T lymphocytes, dog, lymph node	24 h	–	EC50	31 ± 24 nM
Cn1c(=O)c2[nH]cnc2n(C)c1=O	agonist	Rhinella marina urinary bladder	–	reference: deamino-oxytocin	maximal response fraction	0.78
SIYNFEKL	flow cytometry, measured: CD44hi CD8+ T cells	peptide, OT-I CD8+ T cells, mouse	1 µg/mL loading, primed 5 days, TGF-β1 from day 2 onward, with: 20 ng/mL TGF-β1	–	triple cytokine producers	36.4%
cilengitide	–	Sprague-Dawley rats, ethanol control, colonic smooth muscle cells	ip, 18 mg/kg/day, 42 d	–	active TGF-β1 level	0.94 ± 0.015 ng/mg protein
COc1ccc(-n2c(SC/C(=N/O)c3ccc(C)cc3)nnc2-c2nnn(-c3ccc(S(N)(=O)=O)cc3)c2C)cc1	Griess	phosphate buffer-methanol	100 µM, 1 h, pH 7.4, 37 °C, with: N-acetylcysteine 0.5 mM	reference: theoretical maximum release	NO released	2.87%
SIIVFEKL	flow cytometry, measured: CD44hi CD8+ T cells	peptide, OT-I CD8+ T cells, mouse	dose not given, primed 5 days, restimulated 100 ng/mL OVA257, with: no TGF-β1	–	TNF-α only cells	0.2%
Cc1ccc(NC(=O)c2ccc(CN3CCN(C)CC3)cc2)cc1Nc1nccc(-c2cncc(-c3oncc3C)c2)n1	–	mild-to-moderate Parkinson's disease patients	oral, 100 mg once daily, pre-dose baseline, on anti-Parkinson medication	direction not given	NMSS score	18.4 ± 16.1
CC[C@H](C)[C@H](NC(=O)[C@H](CCC(N)=O)NC(=O)[C@H](Cc1c[nH]cn1)NC(=O)[C@H](C)NC(=O)[C@H](CC(C)C)NC(=O)[C@H](CCCCN)NC(=O)[C@H](CCC(N)=O)NC(=O)[C@@H](NC(=O)[C@@H](NC(=O)[C@@H]1CSSC[C@H](NC(=O)CNC(=O)[C@H](Cc2ccccc2)NC(=O)[C@H](CO)NC(=O)[C@H](CCCNC(=N)N)NC(=O)[C@H](CC(C)C)NC(=O)CNC(=O)[C@H](CCC(N)=O)NC(=O)[C@H](Cc2ccccc2)NC(=O)[C@H](CC(N)=O)NC(=O)[C@H](CC(N)=O)NC(=O)[C@H](CCSC)NC(=O)[C@H](CO)NC(=O)[C@H](CCC(N)=O)NC(=O)[C@H](CCCNC(=N)N)NC(=O)[C@@H](N)Cc2ccc(O)cc2)C(=O)N[C@@H](CCCNC(=N)N)C(=O)N[C@@H](Cc2ccccc2)C(=O)NCC(=O)N[C@@H]([C@@H](C)O)C(=O)N1)[C@@H](C)O)C(C)C)C(=O)N[C@@H](Cc1ccc(O)cc1)C(=O)N[C@@H](CCC(N)=O)C(=O)N[C@@H](Cc1ccccc1)C(=O)N[C@H](C(=O)N[C@@H](CC(=O)O)C(=O)N[C@@H](CCCCN)C(=O)N[C@@H](CC(=O)O)C(=O)N[C@@H](CCCCN)C(=O)N[C@@H](CC(=O)O)C(=O)N[C@@H](CC(N)=O)C(=O)N[C@H](C(=O)N[C@@H](C)C(=O)N1CCC[C@H]1C(=O)N[C@@H](CCCNC(=N)N)C(=O)N[C@@H](CO)C(=O)N[C@@H](CCCCN)C(=O)N[C@H](C(=O)N[C@@H](CO)C(=O)N1CCC[C@H]1C(=O)N[C@@H](CCC(N)=O)C(=O)NCC(=O)N[C@@H](Cc1ccc(O)cc1)C(N)=O)[C@@H](C)CC)C(C)C)[C@@H](C)O	–	patients, biologic-resistant Crohn's disease	intravenous infusion, 15 ng/kg/min, 6 weeks, unit not given, with: biologic	reference: baseline	change in CDAI	-65 ± 76
COc1ccc2c(c1)c(CC(=O)O)c(C)n2C(=O)c1ccc(Cl)cc1	multiplex bead immunoassay, measured: GM-CSF	CD-1 mice, serum	ip, 20 mg/kg, three-injection regimen, with: LPS 3 mg/kg	–	cytokine level	57.9 ± 20.8 pg/mL
O=C(O)Cc1ccccc1Nc1c(Cl)cccc1Cl	–	rat carrageenan paw oedema	10 mg/kg, 2 h	–	paw volume increase	0.21 ± 0.02 mm

Molecule	test	test system	conditions	scale	measurement	result
CCCCC/C=C\C/C=C\CCCCCCCC(=O)OCC1(C)COC1	–	mouse	lingual, dose not given, with: linoleic or oleic acid	reference: fatty acid alone	chorda tympani nerve response	increased
COc1ccc2nc([S@@+]([O-])Cc3ncc(C)c(OC)c3C)[nH]c2c1	–	healthy human	oral, single dose, 40 mg, 12 to 24 h, crossover vs dexlansoprazole MR	–	time with intragastric pH above 4	42%
CN(C)C(=O)N[C@H]1CC[C@H](CCN2CCN(c3cccc(Cl)c3Cl)CC2)CC1	open field	Sprague-Dawley rat, ouabain mania model	intraperitoneal, 0.25 mg/kg, 1 h pretreatment, 30 min observation, with: ouabain i.c.v.	–	locomotor activity	72.7 ± 11.7 squares crossed
YEGKK	neovascularization, [3H]thymidine labelling	peptide, BALB/c mouse female, sponge implant granulation tissue	100 µM, day 10	–	labelled endothelial cells	10.2%
Cc1nc(-c2ccc(OCC(C)C)c(C#N)c2)sc1C(=O)O	–	healthy humans	80 mg once daily, day 7, fasted, multiple ascending dose	reference: baseline	serum uric acid change	-58.8%
CS/C(S)=N/CCCC[S+](C)[O-] (racemic)	RT-PCR, measured: Abcb1b	rat, colon	oral gavage, 200 mg/kg, 96 h, dosed for four days	reference: vehicle	mRNA fold change	0.759
CC(C)C[C@H](NC(=O)[C@H](CO)NC(=O)[C@H](CCCNC(=N)N)NC(=O)[C@H](CC(=O)O)NC(=O)[C@H](CCC(=O)O)NC(=O)[C@H](C)NC(=O)[C@@H]1CCCN1C(=O)[C@H](C)NC(=O)[C@H](CCC(=O)O)NC(=O)[C@@H]1CCCN1C(=O)[C@@H]1CCCN1)C(N)=O	measured: tyrosine hydroxylase	rat F344, unilateral 6-OHDA lesion, lesioned SNpc rostral, -5.24 mm from bregma	intranasal, 300 µg daily	–	TH+ neuron number	25 ± 5
insulin aspart	euglycemic clamp	healthy humans	subcutaneous, 0.2 IU/kg, 0 to 8 h, after propensity score matching	–	glucose infusion AUC	1440 ± 397 mg/kg
O=C(/C=C/c1ccc(O)c(O)c1)c1ccc(O)cc1O	–	ethanol	20 µM, 30 min	–	DPPH scavenging	> 80%
CC(C)[C@H](N)C(=O)N[C@@H](Cc1c[nH]cn1)C(=O)N1CCC[C@H]1C(=O)N[C@@H](CCCCN)C(=O)N[C@@H](CCC(N)=O)C(=O)N[C@@H](Cc1c[nH]cn1)C(=O)N[C@@H](CCCNC(=N)N)C(=O)NCC(=O)NCC(=O)N[C@@H](CO)C(=O)N[C@@H](Cc1ccc(O)cc1)C(=O)NCCCC[C@H](NC(=O)[C@H](Cc1ccc(O)cc1)NC(=O)[C@H](CO)NC(=O)CNC(=O)CNC(=O)[C@H](CCCNC(=N)N)NC(=O)[C@H](Cc1c[nH]cn1)NC(=O)[C@H](CCC(N)=O)NC(=O)[C@H](CCCCN)NC(=O)[C@@H]1CCCN1C(=O)[C@H](Cc1c[nH]cn1)NC(=O)[C@@H](N)C(C)C)C(=O)NCCCC[C@H](NC(=O)[C@H](CCCCNC(=O)[C@H](Cc1ccc(O)cc1)NC(=O)[C@H](CO)NC(=O)CNC(=O)CNC(=O)[C@H](CCCNC(=N)N)NC(=O)[C@H](Cc1c[nH]cn1)NC(=O)[C@H](CCC(N)=O)NC(=O)[C@H](CCCCN)NC(=O)[C@@H]1CCCN1C(=O)[C@H](Cc1c[nH]cn1)NC(=O)[C@@H](N)C(C)C)NC(=O)[C@H](Cc1ccc(O)cc1)NC(=O)[C@H](CO)NC(=O)CNC(=O)CNC(=O)[C@H](CCCNC(=N)N)NC(=O)[C@H](Cc1c[nH]cn1)NC(=O)[C@H](CCC(N)=O)NC(=O)[C@H](CCCCN)NC(=O)[C@@H]1CCCN1C(=O)[C@H](Cc1c[nH]cn1)NC(=O)[C@@H](N)C(C)C)C(=O)N[C@@H](CCCCNC(=O)CON=Cc1ccc(F)cc1)C(=O)O [fluorine-18 labelled]	–	mouse myocardial infarction, infarcted myocardium	5 days after MI, with: VCAM-1 antibody pre-injection	–	infarct to background ratio	1.4
Cc1[nH]c2ccccc2c1CCNCc1ccc(/C=C/C(=O)NO)cc1	–	high-risk AML patients	15 mg, with: idarubicin and cytarabine	–	discontinuation due to progression	9.1%
leuprolide	qRT-PCR	men with localised prostate cancer, prostate epithelium	dose not given	reference: untreated men	TMPRSS2 mRNA level	decreased
CCc1cnn2c(NCc3ccc[n+]([O-])c3)cc(N3CCCC[C@H]3CCO)nc12	lymphocyte proliferation, BrdU incorporation	human, whole blood ex vivo	intravenous infusion, 8 h infusion, effect from 1 h, sustained, with: PHA	–	minimum pharmacodynamic dose	≥ 14.8 mg/m2
neuropeptide Y	–	Sprague Dawley rat, urethane-anaesthetised	intravenous, 5 nmol	–	bradycardia-tachycardia crossover time	4.8 ± 1 min
eptifibatide	–	C57BL/6 mice, LPS-induced thrombocytopenia	retro-orbital, 5 mg/kg, 2 and 4 h, with: LPS 12 mg/kg i.p.	–	platelet count	no effect
RKVVTDFFKNIPQRI	sandwich ELISA	peptide, peptide-specific T cell line, mouse, culture supernatant	dose not given, 48 h	–	IL-4 secretion	0.14 ng/mL
Cc1cc(C)c(/C=C2\C(=O)Nc3ccccc32)[nH]1	MRI	human	concentration not given, 7.0 months	–	tumour area	1.31 cm²
C[C@H]1CC[C@H](n2c3cnccc3c3cnc(Nc4ccc5c(n4)CCN(C(=O)CO)C5)nc32)CC1	Rb Ser780 phosphorylation	mouse, orthotopic MOLM13-Luc tumour, femur	plasma concentration, model estimate	–	IC50	3.93 nM
Cc1c(C(=O)Nc2ccc(N3C[C@@H](C)O[C@@H](C)C3)nc2)cccc1-c1ccc(OC(F)(F)F)cc1	cell growth, 3H-thymidine uptake	freshly isolated resistant medulloblastoma cells, mouse	48 h, ex vivo	–	IC50	> 20000 nM

Repeated from above:
Molecule	test	test system	conditions	scale	measurement	result
Nc1ccc([N+](=O)[O-])cc1-c1nc2ccccc2n(Cc2ccccc2)c1=O	short-circuit current increase	mouse, freshly isolated colon	Cl- secretion	–	EC50	~300 nM
COc1cc(F)c([C@@H]2CNC(=O)[C@H]2NC(=O)Nc2ccccc2)c(F)c1	zymosan phagocytosis, stimulator	wild-type peritoneal macrophages, mouse	BioGel-elicited	–	EC50	~0.008 nM
